Experimental data from different studies.
Values joined by “and” are separate records of one study, mostly repeats; a detail may differ. Numbers after ± are the reported error.
SIRT1: NAD-dependent protein deacetylase sirtuin-1 (SIRT1, Homo sapiens, UniProt Q96EB6)
Chain of UniProt Q96EB6 (whole entry, looked up): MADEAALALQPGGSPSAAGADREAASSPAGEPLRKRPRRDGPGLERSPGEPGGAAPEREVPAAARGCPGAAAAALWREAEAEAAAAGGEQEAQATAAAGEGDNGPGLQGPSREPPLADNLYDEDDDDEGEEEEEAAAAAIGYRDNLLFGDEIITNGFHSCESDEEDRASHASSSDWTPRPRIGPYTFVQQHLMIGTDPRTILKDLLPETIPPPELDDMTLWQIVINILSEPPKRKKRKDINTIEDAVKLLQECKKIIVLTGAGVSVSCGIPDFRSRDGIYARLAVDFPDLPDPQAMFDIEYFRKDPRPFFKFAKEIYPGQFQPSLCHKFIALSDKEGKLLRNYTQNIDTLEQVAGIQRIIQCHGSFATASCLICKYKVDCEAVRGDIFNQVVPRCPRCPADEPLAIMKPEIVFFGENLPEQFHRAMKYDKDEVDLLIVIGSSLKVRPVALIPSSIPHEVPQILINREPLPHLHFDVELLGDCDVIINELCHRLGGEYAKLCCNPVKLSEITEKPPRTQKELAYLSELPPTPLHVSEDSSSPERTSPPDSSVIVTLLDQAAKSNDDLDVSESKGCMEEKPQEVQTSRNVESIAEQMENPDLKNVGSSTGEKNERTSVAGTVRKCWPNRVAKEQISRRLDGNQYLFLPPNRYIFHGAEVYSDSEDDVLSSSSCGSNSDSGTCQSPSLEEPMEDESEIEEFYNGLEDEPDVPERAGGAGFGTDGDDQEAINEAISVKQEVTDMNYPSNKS
SIRT3: NAD-dependent protein deacetylase sirtuin-3, mitochondrial (SIRT3, Homo sapiens, UniProt Q9NTG7)
Chain of UniProt Q9NTG7 (whole entry, looked up): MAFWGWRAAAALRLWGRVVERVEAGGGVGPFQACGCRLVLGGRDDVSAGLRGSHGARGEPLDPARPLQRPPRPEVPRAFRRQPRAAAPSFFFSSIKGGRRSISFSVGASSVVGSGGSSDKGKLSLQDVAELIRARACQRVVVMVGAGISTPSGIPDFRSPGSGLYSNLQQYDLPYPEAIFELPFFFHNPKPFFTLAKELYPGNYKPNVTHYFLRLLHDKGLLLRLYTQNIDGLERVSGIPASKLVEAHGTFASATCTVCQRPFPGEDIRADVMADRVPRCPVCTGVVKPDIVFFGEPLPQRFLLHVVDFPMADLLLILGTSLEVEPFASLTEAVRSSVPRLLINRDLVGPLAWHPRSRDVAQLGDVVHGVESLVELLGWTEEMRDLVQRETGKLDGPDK
HTR1B: 5-hydroxytryptamine receptor 1B (HTR1B, Homo sapiens, UniProt P28222)
Chain of UniProt P28222 (whole entry, looked up): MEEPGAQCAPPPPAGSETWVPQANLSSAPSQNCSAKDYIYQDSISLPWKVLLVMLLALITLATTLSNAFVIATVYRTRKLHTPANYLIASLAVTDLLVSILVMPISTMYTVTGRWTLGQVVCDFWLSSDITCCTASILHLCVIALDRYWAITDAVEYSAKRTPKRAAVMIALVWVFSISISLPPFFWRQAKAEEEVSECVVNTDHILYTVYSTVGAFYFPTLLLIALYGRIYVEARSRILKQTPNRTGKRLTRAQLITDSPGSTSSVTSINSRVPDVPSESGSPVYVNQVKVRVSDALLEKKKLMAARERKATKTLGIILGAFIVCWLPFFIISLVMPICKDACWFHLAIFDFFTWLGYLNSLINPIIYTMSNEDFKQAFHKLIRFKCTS
SRPK3: SRSF protein kinase 3 (SRPK3, Homo sapiens, UniProt Q9UPE1)
Chain of UniProt Q9UPE1 (whole entry, looked up): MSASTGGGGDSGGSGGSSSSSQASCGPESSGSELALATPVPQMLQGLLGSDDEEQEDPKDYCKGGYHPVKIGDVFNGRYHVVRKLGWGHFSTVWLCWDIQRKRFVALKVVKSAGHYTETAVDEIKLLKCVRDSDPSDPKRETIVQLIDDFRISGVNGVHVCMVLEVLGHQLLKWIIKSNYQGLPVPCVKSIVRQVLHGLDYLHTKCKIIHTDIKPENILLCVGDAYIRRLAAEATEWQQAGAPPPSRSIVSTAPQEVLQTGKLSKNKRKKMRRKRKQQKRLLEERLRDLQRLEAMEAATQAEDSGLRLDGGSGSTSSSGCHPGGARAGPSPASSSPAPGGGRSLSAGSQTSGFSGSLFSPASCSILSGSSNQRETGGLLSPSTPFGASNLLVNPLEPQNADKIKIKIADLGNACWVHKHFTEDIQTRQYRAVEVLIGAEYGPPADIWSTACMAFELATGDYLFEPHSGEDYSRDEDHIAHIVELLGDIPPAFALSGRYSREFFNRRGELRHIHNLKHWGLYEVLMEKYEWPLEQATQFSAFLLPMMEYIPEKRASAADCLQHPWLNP
AMY2: Pancreatic alpha-amylase (AMY2, Sus scrofa, UniProt P00690)
Chain of UniProt P00690 (whole entry, looked up): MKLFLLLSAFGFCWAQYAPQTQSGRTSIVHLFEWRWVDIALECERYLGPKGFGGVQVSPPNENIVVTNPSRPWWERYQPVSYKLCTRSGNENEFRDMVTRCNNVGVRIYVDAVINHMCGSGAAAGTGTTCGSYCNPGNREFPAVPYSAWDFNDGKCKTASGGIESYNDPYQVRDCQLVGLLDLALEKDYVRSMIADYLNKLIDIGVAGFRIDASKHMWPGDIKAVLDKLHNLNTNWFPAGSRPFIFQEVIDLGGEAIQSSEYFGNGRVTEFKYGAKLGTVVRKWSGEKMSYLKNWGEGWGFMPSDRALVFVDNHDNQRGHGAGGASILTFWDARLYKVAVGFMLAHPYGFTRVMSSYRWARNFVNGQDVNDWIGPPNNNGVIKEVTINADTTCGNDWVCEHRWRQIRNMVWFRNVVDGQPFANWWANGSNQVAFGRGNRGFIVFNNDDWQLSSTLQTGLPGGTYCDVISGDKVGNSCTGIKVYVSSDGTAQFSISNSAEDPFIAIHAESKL
SETDB1 triple Tudor domain: Histone-lysine N-methyltransferase SETDB1, triple Tudor domain (SETDB1, Homo sapiens, UniProt Q15047)
Chain of UniProt P61073 (whole entry, looked up): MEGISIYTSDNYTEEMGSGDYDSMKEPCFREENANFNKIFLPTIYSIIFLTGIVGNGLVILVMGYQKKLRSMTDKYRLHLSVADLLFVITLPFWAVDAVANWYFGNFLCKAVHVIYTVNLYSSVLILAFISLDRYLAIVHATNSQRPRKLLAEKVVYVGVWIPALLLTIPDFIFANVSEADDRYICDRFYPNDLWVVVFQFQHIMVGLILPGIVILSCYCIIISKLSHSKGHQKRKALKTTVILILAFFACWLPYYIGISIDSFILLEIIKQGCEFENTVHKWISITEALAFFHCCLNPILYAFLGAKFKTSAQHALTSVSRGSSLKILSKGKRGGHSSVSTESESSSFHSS
Chain of UniProt Q96KQ7 (whole entry, looked up): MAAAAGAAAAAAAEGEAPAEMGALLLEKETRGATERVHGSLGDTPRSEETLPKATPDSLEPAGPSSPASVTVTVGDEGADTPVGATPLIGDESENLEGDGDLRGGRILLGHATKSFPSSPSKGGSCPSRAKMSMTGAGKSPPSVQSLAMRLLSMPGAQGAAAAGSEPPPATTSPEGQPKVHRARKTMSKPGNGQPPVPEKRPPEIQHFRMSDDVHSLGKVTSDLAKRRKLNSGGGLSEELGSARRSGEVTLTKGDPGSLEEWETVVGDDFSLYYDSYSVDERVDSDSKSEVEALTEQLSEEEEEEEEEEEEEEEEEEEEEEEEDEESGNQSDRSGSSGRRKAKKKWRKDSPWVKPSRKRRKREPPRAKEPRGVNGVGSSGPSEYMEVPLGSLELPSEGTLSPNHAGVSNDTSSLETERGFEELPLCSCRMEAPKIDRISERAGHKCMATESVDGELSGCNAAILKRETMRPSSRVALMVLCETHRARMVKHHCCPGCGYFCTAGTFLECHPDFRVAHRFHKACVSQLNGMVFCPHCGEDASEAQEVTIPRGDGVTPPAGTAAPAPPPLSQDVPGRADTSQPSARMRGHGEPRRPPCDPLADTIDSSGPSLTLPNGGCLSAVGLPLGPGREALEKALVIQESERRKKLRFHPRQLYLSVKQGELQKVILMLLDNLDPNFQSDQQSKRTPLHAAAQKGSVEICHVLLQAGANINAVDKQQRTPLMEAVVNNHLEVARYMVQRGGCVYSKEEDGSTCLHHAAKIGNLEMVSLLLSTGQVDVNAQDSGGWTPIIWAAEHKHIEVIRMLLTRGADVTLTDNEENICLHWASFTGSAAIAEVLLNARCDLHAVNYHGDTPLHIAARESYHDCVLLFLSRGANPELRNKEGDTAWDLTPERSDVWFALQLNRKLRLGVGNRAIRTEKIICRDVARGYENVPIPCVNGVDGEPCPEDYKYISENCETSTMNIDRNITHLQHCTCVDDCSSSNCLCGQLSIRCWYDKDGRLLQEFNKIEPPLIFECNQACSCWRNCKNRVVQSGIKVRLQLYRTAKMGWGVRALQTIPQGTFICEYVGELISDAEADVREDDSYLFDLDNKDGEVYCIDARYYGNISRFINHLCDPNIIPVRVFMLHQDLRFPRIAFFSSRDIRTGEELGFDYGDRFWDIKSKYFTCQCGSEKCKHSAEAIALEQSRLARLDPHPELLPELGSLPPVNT
Chain of UniProt Q9NZQ7 (whole entry, looked up): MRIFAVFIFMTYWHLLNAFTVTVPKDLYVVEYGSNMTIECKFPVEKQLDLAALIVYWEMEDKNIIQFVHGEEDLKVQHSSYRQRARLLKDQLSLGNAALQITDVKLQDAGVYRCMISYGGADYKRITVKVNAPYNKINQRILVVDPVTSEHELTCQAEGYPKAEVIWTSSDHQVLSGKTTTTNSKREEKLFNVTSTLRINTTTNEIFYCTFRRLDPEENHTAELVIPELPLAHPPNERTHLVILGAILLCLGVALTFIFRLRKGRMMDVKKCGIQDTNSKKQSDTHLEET
Chain of UniProt Q99788 (whole entry, looked up): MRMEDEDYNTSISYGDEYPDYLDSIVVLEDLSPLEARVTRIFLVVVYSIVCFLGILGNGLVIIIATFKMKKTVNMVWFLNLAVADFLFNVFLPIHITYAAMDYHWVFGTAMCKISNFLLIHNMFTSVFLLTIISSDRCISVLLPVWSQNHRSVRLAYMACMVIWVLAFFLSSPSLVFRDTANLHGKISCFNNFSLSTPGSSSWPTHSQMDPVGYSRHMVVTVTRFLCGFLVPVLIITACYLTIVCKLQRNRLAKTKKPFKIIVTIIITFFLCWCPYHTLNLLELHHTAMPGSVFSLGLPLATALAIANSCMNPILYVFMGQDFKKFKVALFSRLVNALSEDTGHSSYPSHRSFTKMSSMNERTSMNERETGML

Compound	target	test	system	conditions	inhibition
CCCCCCCCCCCCNC(=S)NCCCC[C@H](NC(=O)OCc1ccccc1)C(=O)N[C@@H](Cc1ccc(O)c([N+](=O)[O-])c1)C(=O)N[C@@H](CCCNC(=N)N)C(N)=O	SIRT1	enzyme activity, inhibitor	–	1 µM	56%
CN(C)C/C=C/C(=O)Nc1ccc2nc(NCCCCCN(C)C)nc(NCCCCCCN(C)C)c2c1	Histone-arginine methyltransferase CARM1 (CARM1, Homo sapiens, UniProt Q86X55)	enzyme activity, inhibitor, radiometric	–	50 µM	79%
CCCCCCCCCCCCNC(=S)NCCCC[C@H](NC(=O)OCc1ccccc1)C(=O)N1CCC[C@H]1C(=O)N[C@@H](CCCNC(=N)N)C(N)=O	SIRT3	enzyme activity, inhibitor	–	10 µM	< 5%
Brc1ccccc1-c1nnc(CSc2nnnn2-c2ccccc2)o1	HTR1B	ligand displacement, radioligand	–	10 µM	5%
COc1ccc(C[C@H](NC(=O)Cc2cccc(Oc3ccccc3)c2)C(=O)N[C@@H](Cc2c[nH]c3ccccc23)C(=O)NCc2ccc(C)cc2)cc1OC	chymotrypsin	enzyme activity, inhibitor	–	100 µM	1%
COc1cc(-n2cc3cc(F)cc(C(N)=O)c3n2)cc(Cl)c1C1CC(O)(CCO)Cc2ccccc21 (stereo not shown)	Protein mono-ADP-ribosyltransferase TIPARP (TIPARP, Homo sapiens, UniProt Q7Z3E1)	enzyme activity, inhibitor	–	10 µM	0.4%
CC(C)c1noc(CN2CC(C)N(Cc3nc(C(C)C)no3)c3ccccc32)n1 (stereo not shown)	C-X-C chemokine receptor type 4 (CXCR4, Homo sapiens, UniProt P61073)	arrestin recruitment, DiscoverX arrestin	–	30 µM	69% and 75%
O=C(Nc1cccc(C(F)(F)F)c1)Nc1ccccc1O	SRPK3	enzyme activity, inhibitor, FRET	–	10 µM	58.9%
CC(C)C[C@H]1CNC(=O)N2C[C@H](C[C@H]2C(N)=O)NC(=O)CCNC(=N)NCCCCNC(=N)NCCCC[C@H](NC(=O)[C@H](Cc2ccccc2)NC(=O)[C@H](CO)NC(=O)[C@@H](N)[C@@H](C)O)C(=O)N[C@@H](CCC(=O)O)C(=O)N[C@@H](Cc2ccc(O)cc2)C(=O)N[C@@H](Cc2c[nH]c3ccccc23)C(=O)N[C@@H](C)C(=O)N[C@@H](CC(C)C)CNC(=O)N1	Protein Mdm4 (MDM4, Homo sapiens, UniProt O15151)	protein-protein interaction, inhibitor, TR-FRET	–	0.1 µM	23%
COc1ccc(NC(=O)Nc2ccccc2)cc1	SRPK3	binding, KINOMEscan competitive binding	–	concentration not given	51%
Cc1ccc(N(O)/N=N/c2ccc(S(=O)(=O)Nc3nccs3)cc2)cc1	AMY2	enzyme activity, inhibitor	–	60 µg/mL	10.5%
O=C1c2sc(-c3ccc(N4CCC(F)C4)nc3F)nc2CCN1c1cccnc1 (stereo not shown)	Sodium-dependent noradrenaline transporter (SLC6A2, Homo sapiens, UniProt P23975)	ligand displacement, radioligand	–	1 µM	1%
CCCCCCCCCCCCNC(=S)NCCCC[C@H](NC(C)=O)C(=O)N[C@H](C)C(=O)N[C@@H](CCCNC(=N)N)C(N)=O	SIRT3	enzyme activity, inhibitor	–	10 µM	21%
C[C@H](NC(=O)[C@H](CC(=O)NCC(C)(C)C)NC(=O)C(=O)c1c[nH]c2ccccc12)C(=O)NCc1ccc(F)cc1F	Prothrombin (F2, Homo sapiens, UniProt P00734)	enzyme activity, inhibitor	–	100 µM	30%
COCC(=O)N1CCc2cc(-c3csc(NC(=O)c4cc(OC)cc(OC)c4)n3)ccc21	Androgen receptor (Ar, Rattus norvegicus, UniProt P15207)	cell-free assay	–	10 µM	21%
O=C1CO[C@H](CNC(=O)C2(c3ccc(Cl)cc3)CC2)CN1C1Cc2ccccc2C1	Chemerin-like receptor 1 (CMKLR1, Homo sapiens, UniProt Q99788)	β-arrestin recruitment, antagonist	–	1 µM	-2%
CN(Cc1ccc(/C=C/C(=O)NO)cc1)CC12CC3CC(CC(C3)C1)C2	human 5-HT3 receptor	antagonist radioligand binding	–	0.05 µM	1%

Compound	target	test	system	conditions	inhibition
C/C=C/C(=O)Nc1ccc2nc(NCCCCCN(C)C)nc(NCCCCCCN(C)C)c2c1	Histone-lysine N-methyltransferase EHMT2 (EHMT2, Homo sapiens, UniProt Q96KQ7)	enzyme activity, inhibitor, radiometric	–	10 µM	25%
O=c1c(O)c(-c2ccc(O)cc2O)oc2c(Br)c(O)c(Br)c(O)c12	AMY2	enzyme activity, inhibitor	–	50 µM, 30 min	99.9%
COc1ccc2c(c1)C(CC(=O)NC(C(=O)NC(CCc1ccccc1)C(=O)NCc1ccc(C)cc1)C(C)O)CC2=O (stereo not shown)	trypsin	enzyme activity, inhibitor	–	100 µM	-6%
O=C(NC1CCC1)[C@H](Cc1c[nH]c2ccccc12)NC(=O)[C@H](CCCCNC(=S)NCCc1noc(=O)[nH]1)NS(=O)(=O)c1cccc(F)c1	SIRT3	deacylase activity	–	1 µM, added: NAD+ 500 µM	< 0%
O=C1c2sc(-c3ccc(N4CCC(CO)CC4)nc3F)nc2CCN1c1cccnc1	GABA transporter	radioligand binding	–	1 µM, added: antagonist radioligand	-21%
CCCCCCCCCCCCNC(=S)NCCCC[C@H](NC(=O)OCc1ccccc1)C(=O)N[C@@H](Cc1c[nH]c2ccccc12)C(=O)NC(C)C	SIRT1	enzyme activity, inhibitor	–	10 µM	47%
CC1CCN(C(=O)c2cccc(NC(=O)Nc3cc(Cl)cc(Cl)c3)c2)CC1	Penicillin-binding protein 4 (Staphylococcus aureus, UniProt P72355)	Bocillin-FL binding, inhibitor, fluorescence polarization	–	50 µM, added: PBP4 1 µM	no inhibition
Cc1ccc(CNC(=O)C(CCc2ccccc2)NC(=O)C(NC(=O)Cc2cccc(Oc3ccccc3)c2)C(C)O)cc1 (stereo not shown)	trypsin	enzyme activity, inhibitor	–	100 µM	3%
Cc1ccnc(OC[C@H]2CN(CCN3CCc4ccccc43)CCO2)c1	HTR1B	radioligand binding	–	concentration not given, added: [3H]5-CT	-1.1%
CC(=O)C12NC(C)(C)CC1(C)C(=O)C1=C2c2c(c3c4n2C(C)(C)CC2=C4C4(CC(C)(C)NC(C)(C4)C2=O)CC3(C)C)C(=O)C(C)(C)N1 (single isomer, unassigned; (+))	P2X purinoceptor 4 (P2RX4, Homo sapiens, UniProt Q99571)	ion current, antagonist, whole-cell patch clamp	HEK293T	10 µM	8.71 ± 0.06%
CSCC[C@H](NC(=O)[C@H](Cc1ccc(O)cc1)NC(=O)[C@H](Cc1c[nH]c2ccccc12)NC(=O)[C@H](C)NC(=O)[C@H](Cc1c[nH]c2ccccc12)NC(=O)[C@H](Cc1c[nH]c2ccccc12)NC(=O)[C@H](CCCCN)NC(C)=O)C(N)=O	Programmed cell death 1 ligand 1, with PD-1 (CD274, Homo sapiens, UniProt Q9NZQ7)	PD-1/PD-L1 binding, ELISA	–	10 µM	34.7 ± 11.4%
O=c1cc(-c2ccccc2)oc2c(Br)c(O)c(O)c(O)c12	AMY2	enzyme activity, inhibitor	–	50 µM, added: CNP-G3 substrate	0%
C[Si]1(C[C@H](CN)CC(=O)O)CCCC1	SK potassium channel, rat	binding, radioligand binding	–	70 µM, added: iodinated apamin	2%
C=CS(=O)(=O)Nc1ccc2nc(NCCCCCN(C)C)nc(NCCCCCCN(C)C)c2c1	SETDB1 triple Tudor domain	–	–	33.33 µM	123%
C[Si](C)(C)C[C@@H](CN)CC(=O)O	KATP channel, human	binding, radioligand binding	–	75 µM, added: [3H]glyburide	0%
C#CC(=O)Nc1ccc2nc(NCCCCCN(C)C)nc(NCCCCCCN(C)C)c2c1	SETDB1 triple Tudor domain	–	–	33.33 µM	71.7%
C=CCNC(=O)[C@H](CCc1ccccc1)NC(=O)[C@H](CC(=O)NCC(C)(C)C)NC(=O)CCc1ccccc1	trypsin	enzyme activity, inhibitor	–	100 µM	1%
